Measured values from different studies.
Numbered parts are unrelated; each lists some results of a single study.
Sequence of UniProt Q16566 (whole entry, looked up): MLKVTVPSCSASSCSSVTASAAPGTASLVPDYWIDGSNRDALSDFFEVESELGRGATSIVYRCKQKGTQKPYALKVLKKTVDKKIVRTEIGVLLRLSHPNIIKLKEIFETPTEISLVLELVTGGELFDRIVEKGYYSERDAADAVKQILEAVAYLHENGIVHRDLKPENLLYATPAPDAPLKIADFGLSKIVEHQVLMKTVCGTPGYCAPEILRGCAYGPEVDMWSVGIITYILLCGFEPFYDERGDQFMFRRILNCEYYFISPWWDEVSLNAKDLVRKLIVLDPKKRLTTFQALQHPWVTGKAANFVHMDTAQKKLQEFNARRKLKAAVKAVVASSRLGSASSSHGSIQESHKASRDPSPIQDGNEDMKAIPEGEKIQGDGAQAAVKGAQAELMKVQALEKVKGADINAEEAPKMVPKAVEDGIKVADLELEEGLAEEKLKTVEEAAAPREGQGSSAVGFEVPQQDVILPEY
Sequence of UniProt Q9HAZ1 (whole entry, looked up): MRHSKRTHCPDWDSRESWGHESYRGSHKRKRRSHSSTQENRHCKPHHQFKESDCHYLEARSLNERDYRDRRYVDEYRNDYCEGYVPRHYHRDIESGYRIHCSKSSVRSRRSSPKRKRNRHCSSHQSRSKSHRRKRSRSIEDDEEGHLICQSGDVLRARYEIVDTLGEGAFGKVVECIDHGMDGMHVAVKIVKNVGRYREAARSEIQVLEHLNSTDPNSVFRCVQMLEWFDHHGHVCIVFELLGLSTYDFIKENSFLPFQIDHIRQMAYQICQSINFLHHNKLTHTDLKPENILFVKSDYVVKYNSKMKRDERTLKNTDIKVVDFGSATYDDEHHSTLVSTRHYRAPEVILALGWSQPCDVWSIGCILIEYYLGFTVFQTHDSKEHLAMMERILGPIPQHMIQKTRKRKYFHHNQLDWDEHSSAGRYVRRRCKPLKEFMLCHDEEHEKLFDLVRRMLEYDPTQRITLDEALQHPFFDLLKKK
Sequence of UniProt P51956 (whole entry, looked up): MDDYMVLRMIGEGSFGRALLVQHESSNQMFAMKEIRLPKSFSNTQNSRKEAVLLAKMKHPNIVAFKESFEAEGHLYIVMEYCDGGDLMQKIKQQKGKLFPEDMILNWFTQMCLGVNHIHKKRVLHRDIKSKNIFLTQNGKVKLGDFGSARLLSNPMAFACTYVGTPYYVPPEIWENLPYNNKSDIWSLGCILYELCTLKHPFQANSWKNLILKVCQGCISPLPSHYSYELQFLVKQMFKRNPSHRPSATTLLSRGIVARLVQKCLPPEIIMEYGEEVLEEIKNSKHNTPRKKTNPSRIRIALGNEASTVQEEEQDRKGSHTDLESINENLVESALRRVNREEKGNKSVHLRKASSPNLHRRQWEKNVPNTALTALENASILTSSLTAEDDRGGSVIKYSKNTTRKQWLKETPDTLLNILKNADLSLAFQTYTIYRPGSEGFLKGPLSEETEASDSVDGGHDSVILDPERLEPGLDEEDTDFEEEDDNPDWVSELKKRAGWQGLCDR
Sequence of UniProt O76039 (whole entry, looked up): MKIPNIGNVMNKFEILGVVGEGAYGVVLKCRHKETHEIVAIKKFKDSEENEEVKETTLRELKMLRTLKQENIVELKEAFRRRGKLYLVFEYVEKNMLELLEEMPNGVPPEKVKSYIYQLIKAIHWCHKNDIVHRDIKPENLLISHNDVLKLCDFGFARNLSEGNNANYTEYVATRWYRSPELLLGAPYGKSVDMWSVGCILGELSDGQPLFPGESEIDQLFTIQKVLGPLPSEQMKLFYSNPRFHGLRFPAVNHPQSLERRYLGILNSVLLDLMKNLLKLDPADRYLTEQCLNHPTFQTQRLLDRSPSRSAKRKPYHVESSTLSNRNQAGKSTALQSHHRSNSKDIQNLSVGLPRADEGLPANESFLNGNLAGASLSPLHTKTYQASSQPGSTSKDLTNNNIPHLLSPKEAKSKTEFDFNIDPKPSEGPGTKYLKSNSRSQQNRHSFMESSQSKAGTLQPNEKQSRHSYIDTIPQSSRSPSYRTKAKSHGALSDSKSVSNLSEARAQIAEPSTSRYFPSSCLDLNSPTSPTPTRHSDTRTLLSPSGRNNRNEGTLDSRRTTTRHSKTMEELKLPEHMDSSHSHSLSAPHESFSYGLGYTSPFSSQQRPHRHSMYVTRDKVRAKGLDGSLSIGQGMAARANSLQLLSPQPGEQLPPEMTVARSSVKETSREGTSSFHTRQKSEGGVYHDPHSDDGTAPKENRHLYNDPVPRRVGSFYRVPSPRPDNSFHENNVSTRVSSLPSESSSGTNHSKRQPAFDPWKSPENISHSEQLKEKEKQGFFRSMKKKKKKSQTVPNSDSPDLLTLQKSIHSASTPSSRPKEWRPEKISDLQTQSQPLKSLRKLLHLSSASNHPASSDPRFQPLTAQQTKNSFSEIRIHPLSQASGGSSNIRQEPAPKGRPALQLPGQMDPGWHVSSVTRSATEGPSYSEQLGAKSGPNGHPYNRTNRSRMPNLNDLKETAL
Sequence of UniProt Q15759 (whole entry, looked up): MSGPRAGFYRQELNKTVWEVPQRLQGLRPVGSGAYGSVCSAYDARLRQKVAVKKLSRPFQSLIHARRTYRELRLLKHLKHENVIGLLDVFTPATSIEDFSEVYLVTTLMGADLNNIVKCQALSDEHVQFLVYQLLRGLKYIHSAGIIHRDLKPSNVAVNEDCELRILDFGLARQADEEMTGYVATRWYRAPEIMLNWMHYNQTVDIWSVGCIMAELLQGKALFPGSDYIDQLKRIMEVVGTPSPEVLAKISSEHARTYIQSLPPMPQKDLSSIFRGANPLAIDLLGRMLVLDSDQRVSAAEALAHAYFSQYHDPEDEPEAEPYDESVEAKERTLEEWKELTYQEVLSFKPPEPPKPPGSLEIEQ
Sequence of UniProt Q16539 (whole entry, looked up): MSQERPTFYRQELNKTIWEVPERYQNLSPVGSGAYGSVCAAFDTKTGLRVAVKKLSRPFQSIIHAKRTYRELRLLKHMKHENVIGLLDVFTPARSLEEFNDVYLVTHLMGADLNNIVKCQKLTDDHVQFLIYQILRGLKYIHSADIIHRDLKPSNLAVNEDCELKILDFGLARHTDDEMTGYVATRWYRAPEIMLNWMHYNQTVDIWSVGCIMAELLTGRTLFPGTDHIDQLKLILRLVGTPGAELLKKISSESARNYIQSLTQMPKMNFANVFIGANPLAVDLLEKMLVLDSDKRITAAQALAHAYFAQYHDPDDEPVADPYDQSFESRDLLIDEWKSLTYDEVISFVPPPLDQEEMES
Sequence of UniProt Q13464 (whole entry, looked up): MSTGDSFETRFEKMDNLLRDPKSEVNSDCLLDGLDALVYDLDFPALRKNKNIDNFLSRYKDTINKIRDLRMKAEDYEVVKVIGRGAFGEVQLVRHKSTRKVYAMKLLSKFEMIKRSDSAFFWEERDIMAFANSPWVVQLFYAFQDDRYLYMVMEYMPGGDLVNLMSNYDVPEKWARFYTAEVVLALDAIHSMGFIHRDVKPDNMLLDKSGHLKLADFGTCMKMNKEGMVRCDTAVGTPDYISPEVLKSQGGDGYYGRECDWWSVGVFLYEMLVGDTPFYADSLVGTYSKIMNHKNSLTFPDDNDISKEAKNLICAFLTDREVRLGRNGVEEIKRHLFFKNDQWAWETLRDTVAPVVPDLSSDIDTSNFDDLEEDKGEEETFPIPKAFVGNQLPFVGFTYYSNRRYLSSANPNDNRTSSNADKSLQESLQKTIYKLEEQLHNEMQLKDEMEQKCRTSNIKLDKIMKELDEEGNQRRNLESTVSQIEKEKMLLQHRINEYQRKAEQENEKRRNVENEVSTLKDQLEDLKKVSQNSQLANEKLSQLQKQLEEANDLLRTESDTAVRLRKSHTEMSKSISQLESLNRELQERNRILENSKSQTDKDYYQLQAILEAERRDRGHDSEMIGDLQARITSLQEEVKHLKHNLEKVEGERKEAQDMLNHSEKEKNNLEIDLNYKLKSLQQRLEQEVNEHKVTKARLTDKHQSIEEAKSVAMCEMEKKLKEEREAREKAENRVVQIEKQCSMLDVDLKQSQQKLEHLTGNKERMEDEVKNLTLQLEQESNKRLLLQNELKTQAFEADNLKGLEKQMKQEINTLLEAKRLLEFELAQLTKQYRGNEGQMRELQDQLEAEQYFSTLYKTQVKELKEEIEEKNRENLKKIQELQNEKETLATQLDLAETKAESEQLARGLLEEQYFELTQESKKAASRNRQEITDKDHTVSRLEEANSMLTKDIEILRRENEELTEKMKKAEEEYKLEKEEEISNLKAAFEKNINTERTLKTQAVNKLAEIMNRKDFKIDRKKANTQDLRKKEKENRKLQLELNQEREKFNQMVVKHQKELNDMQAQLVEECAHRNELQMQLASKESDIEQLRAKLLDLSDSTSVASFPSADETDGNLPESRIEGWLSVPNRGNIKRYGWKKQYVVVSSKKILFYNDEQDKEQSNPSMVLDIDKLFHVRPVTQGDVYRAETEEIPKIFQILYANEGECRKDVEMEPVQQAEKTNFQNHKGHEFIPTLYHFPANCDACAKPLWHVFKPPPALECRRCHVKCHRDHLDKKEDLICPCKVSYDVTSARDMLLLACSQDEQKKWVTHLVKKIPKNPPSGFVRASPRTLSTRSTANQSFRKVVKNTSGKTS

Series 1 — SMILES: CCCCc1c(-c2ccc(OC)cc2)[nH]c2nccnc12; effect on: enzyme activity; action: inhibitor; concentration: 0.5 µM; baseline: control; measurement: remaining activity
Calcium/calmodulin-dependent protein kinase type IV (CAMK4, Homo sapiens, UniProt Q16566): 97.6%
Cyclin-dependent kinase 1, with cyclin A (CDK1, Homo sapiens, UniProt P06493): 65.4%
Hepatocyte growth factor receptor (MET, Homo sapiens, UniProt P08581): 86.8%
Dual specificity mitogen-activated protein kinase kinase 1 (MAP2K1, Homo sapiens, UniProt Q02750): 88.7%
Serine/threonine-protein kinase DCLK2 (DCLK2, Homo sapiens, UniProt Q8N568): 101%
Serine/threonine-protein kinase MRCK beta (CDC42BPB, Homo sapiens, UniProt Q9Y5S2): 92.5%
Dual specificity protein kinase CLK4 (CLK4, Homo sapiens, UniProt Q9HAZ1): 73.2%
Mitogen-activated protein kinase 11 (MAPK11, Homo sapiens, UniProt Q15759): 100%
Mitogen-activated protein kinase 14 (MAPK14, Homo sapiens, UniProt Q16539): 112%
Serine/threonine-protein kinase Nek3 (NEK3, Homo sapiens, UniProt P51956): 99.1%
Rho-associated protein kinase 1 (ROCK1, Homo sapiens, UniProt Q13464): 99.9%
Serine/threonine-protein kinase PAK 3 (PAK3, Homo sapiens, UniProt O75914): 106%
Misshapen-like kinase 1 (MINK1, Homo sapiens, UniProt Q8N4C8): 84.4%

Series 2 — effect on: cell-free assay; technique: competition with immobilised ligand; concentration: 1 µM; measurement: remaining binding
SMILES: Cc1c(NC(=O)c2cc(C(N)=O)nc3cc(F)ccc23)c(C(F)(F)F)nn1Cc1ccc(C(C)(C)C)cc1
1-phosphatidylinositol 3-phosphate 5-kinase (PIKFYVE, Homo sapiens, UniProt Q9Y2I7): 100%
RAC-alpha serine/threonine-protein kinase (AKT1, Homo sapiens, UniProt P31749): 93%
RAF proto-oncogene serine/threonine-protein kinase (RAF1, Homo sapiens, UniProt P04049): 88%
Serine/threonine-protein kinase DCLK3 (DCLK3, Homo sapiens, UniProt Q9C098): 100%
Epidermal growth factor receptor (EGFR, Homo sapiens, UniProt P00533, L861Q): 65%
Tyrosine-protein kinase ABL1, non-phosphorylated (ABL1, Homo sapiens, UniProt P00519, H396P): 100%
Serine/threonine-protein kinase Nek10 (NEK10, Homo sapiens, UniProt Q6ZWH5): 100%
Cyclin-dependent kinase-like 5 (CDKL5, Homo sapiens, UniProt O76039): 100%
Mast/stem cell growth factor receptor Kit (KIT, Homo sapiens, UniProt P10721, A829P): 98%
Receptor tyrosine-protein kinase erbB-3 (ERBB3, Homo sapiens, UniProt P21860): 94%

Series 3 — organism: Plasmodium berghei; action: inhibitor; cell line: Huh-7; strain: GFP-expressing, liver stage; concentration: 10 µM; time: 24 h; baseline: untreated control; measurement: infection rate
COc1cc2nc(N3CCN(C(=O)C4CCCO4)CC3)nc(N)c2cc1OC (centres unmarked): 83.2%
CC(C)(CO)[C@@H](O)C(=O)NCCC(=O)O: 97.5%
CCc1ccc(CCOc2ccc(CC3SC(=O)NC3=O)cc2)nc1 (centres unmarked): 91.4%
CN(C)CCN(Cc1ccccc1)c1ccccn1: 65%
CC(C)[N+](C)(CCOC(=O)C1c2ccccc2Oc2ccccc21)C(C)C: 51.2%
CCCN(CCC)CCc1cccc2c1CC(=O)N2: 109%
Cc1ccnc(NS(=O)(=O)c2ccc(N)cc2)n1: 105%
CCCN(CCC)C(=O)C(CCC(=O)O)NC(=O)c1ccccc1 (centres unmarked): 113%
Cc1ncc(CO)c(CO)c1O: 93.3%
Cc1cc(CC(=O)O)n(C)c1C(=O)c1ccc(Cl)cc1: 116%
CN1CC(=O)N2[C@H](c3ccc4c(c3)OCO4)c3[nH]c4ccccc4c3C[C@@H]2C1=O: 86.1%

Series 4 — action: antagonist; measurement: IC50
Target: Beta-1 adrenergic receptor (ADRB1, Homo sapiens, UniProt P08588)
Sequence of UniProt P08588 (whole entry, looked up): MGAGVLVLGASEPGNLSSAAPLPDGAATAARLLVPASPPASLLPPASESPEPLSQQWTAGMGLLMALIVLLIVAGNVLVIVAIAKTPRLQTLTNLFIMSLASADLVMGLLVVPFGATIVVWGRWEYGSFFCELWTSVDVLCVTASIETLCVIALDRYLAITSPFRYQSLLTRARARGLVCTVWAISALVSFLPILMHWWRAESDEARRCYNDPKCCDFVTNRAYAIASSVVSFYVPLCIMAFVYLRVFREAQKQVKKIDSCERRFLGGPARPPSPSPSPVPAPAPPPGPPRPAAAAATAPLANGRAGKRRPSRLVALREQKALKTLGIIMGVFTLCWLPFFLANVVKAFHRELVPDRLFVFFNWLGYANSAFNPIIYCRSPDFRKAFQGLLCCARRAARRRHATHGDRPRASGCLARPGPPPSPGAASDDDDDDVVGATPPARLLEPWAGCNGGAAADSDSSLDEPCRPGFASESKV
COc1ccccc1N1CCN([C@H]2[C@@H]3OC[C@@H](O3)[C@@H](NCc3ccco3)[C@@H]2O)CC1: ≥ 100 µM
CN(C)c1cccc(-c2nc(N3CCOCC3)cc3c2CN(Cc2cnn(C)c2)C3=O)c1: ≥ 100 µM
COc1ccc(-c2cc(N3CCCC3)nc(N)n2)c2ccc(C)nc12: ≥ 100 µM
NCCCN(CCCCNCCCNC(=O)CCc1ccc(O)c(O)c1)C(=O)CCc1ccc(O)c(O)c1: ≥ 100 µM
Cc1cc(NCCc2cnccn2)nc(-c2ccccc2O)n1: 11.2 µM
Oc1cccc(-c2c3nc(c(-c4cccc(O)c4)c4ccc([nH]4)c(-c4cccc(O)c4)c4nc(c(-c5cccc(O)c5)c5ccc2[nH]5)CC4)C=C3)c1: ≥ 100 µM
O=C(Nc1ccc([C@@H](O)[C@H]2COCC(=O)N2CCCc2ccccc2)cc1)c1ccco1: ≥ 100 µM
COc1ccccc1N1CCN(CCN2C(=O)NC(C)(C)C2=O)CC1: ≥ 100 µM
CN(C)c1cccc(-c2nccc3c(=O)cc(N4CCOCC4)oc23)c1: ≥ 100 µM
Cc1ncc(-c2ccc(F)c3cccnc23)nc1C: ≥ 100 µM

For quick reference, copied from above (series 2):
1-phosphatidylinositol 3-phosphate 5-kinase (PIKFYVE, Homo sapiens, UniProt Q9Y2I7): 100%
RAC-alpha serine/threonine-protein kinase (AKT1, Homo sapiens, UniProt P31749): 93%
RAF proto-oncogene serine/threonine-protein kinase (RAF1, Homo sapiens, UniProt P04049): 88%
Serine/threonine-protein kinase DCLK3 (DCLK3, Homo sapiens, UniProt Q9C098): 100%
